Measurements from different studies.
Each numbered part is a random draw from the data of one study; scales do not carry over between parts. Substitutions count along the parent as printed.

Block 1
Target: Interferon regulatory factor 5, full length, phosphomimetic (IRF5, Homo sapiens, UniProt Q13568-2, residues 1-514, K96S/S451D/S453D/S456D/S462D)
Technique: protein-binding microarray
Molecule type: double-stranded DNA, one strand shown
Matrix: in vitro
Concentration: 250 nM
Notes: 60-bp whole probe
With: salmon DNA 0.4 mg/ml
Baseline: random background probes
Direction: higher = stronger binding
Shared flanks, not repeated: GCCTAGCAC … GTCTTGATTCGCTTGACGCTGCTG
The log fluorescence of `TTAGGTATCGGGTTTCGGTTAGTGCTA` is reported as 8.07 z-score.
`GACGGTATCGTTCTCGGGACGTGCTAG` gave a log fluorescence of 1.64 z-score.
`TCATGTTTTTTTCTACTACTGTGCTAG` gave a log fluorescence of 1.38 z-score.
With `GACTGTTTCGGTCTCGGGACGTGCTAG` the log fluorescence was 9.14 z-score.
For `GACTATCTCAGTCTCGAGACGTGCTAG`, the log fluorescence was 0.421 z-score.
The log fluorescence of `TTAGGTTTCGGTTCCGGTGAGTGCTAG` is reported as 10.3 z-score.
`TCGCCTTTTTTGTTGTTTTTGTGCTAG` gave a log fluorescence of 1.53 z-score.
The log fluorescence of `GACGAACTAAGTATCGAGACGTGCTAG` is reported as 1.77 z-score.
`TTAGGTCTCAGACTGGGTTAGTGCTAG` gave a log fluorescence of -0.312 z-score.
`TTAGAACTGAGACTGGAGTAGTGCTAG` gave a log fluorescence of -0.371 z-score.
The log fluorescence of `CTGGAGAGACGGAGTCTCCAGTGCTAG` is reported as -0.57 z-score.
The log fluorescence of `GACGGACTGCTTTTCCTAACGTGCTAG` is reported as -0.214 z-score.
`GGAAAAATGATGTTTTAGGTCGTGCTA` has a log fluorescence of 0.433 z-score.
`GACGGACTGGGAATGGGGACGTGCTAG` gave a log fluorescence of -0.588 z-score.
`GACGAAGTGGGGTTTCGAGACGTGCTA` gave a log fluorescence of 1.14 z-score.
`GACGGACTGGGGTTTCAGGACGTGCTA` gave a log fluorescence of -0.389 z-score.
`TTAGGTTTCGGACTGAGTTAGTGCTAG` gave a log fluorescence of 5.36 z-score.
The log fluorescence of `TTAGGGTTCCTTTTCCTTTAGTGCTAG` is reported as 0.314 z-score.
With `GACGGACTGGACATTGGGGACGTGCTA` the log fluorescence was -0.465 z-score.

Block 2
Target: CCNB3, cyclin fold, Cln2 fusion (human)
Technique: yeast growth competition, sequencing
Matrix: yeast
Notes: weak parent motif
Baseline: not given
Direction: higher = stronger binding
Starting sequence: SLBP docking peptide (human); ARYKRKLLINDFG
`ARYKFKLLINDFG [R5F]` — result for “normalised enrichment score”: 0.17.
For `ARYKRKLLINDIG [F12I]`, “normalised enrichment score” read 0.053.
For `ARYKRKALINDFG [L7A]`, “normalised enrichment score” read -0.0358.
`ARMKRKLLINDFG [Y3M]` — result for “normalised enrichment score”: 0.357.
Under “normalised enrichment score”, `FRYKRKLLINDFG [A1F]` is recorded as -0.0304.
Under “normalised enrichment score”, `ARYKRKWLINDFG [L7W]` is recorded as -0.299.
Under “normalised enrichment score”, `ARYKRKLFINDFG [L8F]` is recorded as 0.151.
For `ANYKRKLLINDFG [R2N]`, “normalised enrichment score” read 0.654.
For `ARYKRKRLINDFG [L7R]`, “normalised enrichment score” read 0.121.
`ARYKRKLLIPDFG [N10P]` — result for “normalised enrichment score”: 0.191.
For `ARYKRKLYINDFG [L8Y]`, “normalised enrichment score” read 0.212.
`ARYKRKLLICDFG [N10C]` — result for “normalised enrichment score”: 0.0728.
`ARYKRKLLINGFG [D11G]` — result for “normalised enrichment score”: 0.259.
`ARYKRKLLINDLG [F12L]` — result for “normalised enrichment score”: 0.485.
Under “normalised enrichment score”, `ARYKRSLLINDFG [K6S]` is recorded as -0.323.
`ARTKRKLLINDFG [Y3T]`: “normalised enrichment score” 0.113.
`ARYTRKLLINDFG [K4T]` — result for “normalised enrichment score”: -0.27.
For `AWYKRKLLINDFG [R2W]`, “normalised enrichment score” read 0.342.
`ARYKRKLLIADFG [N10A]`: “normalised enrichment score” 0.131.
For `ARYKRKLLINDNG [F12N]`, “normalised enrichment score” read 0.0507.
`ARYRRKLLINDFG [K4R]` — result for “normalised enrichment score”: -0.0467.
For `ARYKRKLCINDFG [L8C]`, “normalised enrichment score” read -0.118.
`ARYIRKLLINDFG [K4I]` — result for “normalised enrichment score”: -0.117.
`ARYKRKLLINDVG [F12V]` — result for “normalised enrichment score”: -0.175.

Block 3
Target: Sal-like protein 4, full length isoform A (SALL4, Homo sapiens, UniProt Q9UJQ4, residues 1-1053)
Sequence of UniProt Q9UJQ4 (whole entry, looked up): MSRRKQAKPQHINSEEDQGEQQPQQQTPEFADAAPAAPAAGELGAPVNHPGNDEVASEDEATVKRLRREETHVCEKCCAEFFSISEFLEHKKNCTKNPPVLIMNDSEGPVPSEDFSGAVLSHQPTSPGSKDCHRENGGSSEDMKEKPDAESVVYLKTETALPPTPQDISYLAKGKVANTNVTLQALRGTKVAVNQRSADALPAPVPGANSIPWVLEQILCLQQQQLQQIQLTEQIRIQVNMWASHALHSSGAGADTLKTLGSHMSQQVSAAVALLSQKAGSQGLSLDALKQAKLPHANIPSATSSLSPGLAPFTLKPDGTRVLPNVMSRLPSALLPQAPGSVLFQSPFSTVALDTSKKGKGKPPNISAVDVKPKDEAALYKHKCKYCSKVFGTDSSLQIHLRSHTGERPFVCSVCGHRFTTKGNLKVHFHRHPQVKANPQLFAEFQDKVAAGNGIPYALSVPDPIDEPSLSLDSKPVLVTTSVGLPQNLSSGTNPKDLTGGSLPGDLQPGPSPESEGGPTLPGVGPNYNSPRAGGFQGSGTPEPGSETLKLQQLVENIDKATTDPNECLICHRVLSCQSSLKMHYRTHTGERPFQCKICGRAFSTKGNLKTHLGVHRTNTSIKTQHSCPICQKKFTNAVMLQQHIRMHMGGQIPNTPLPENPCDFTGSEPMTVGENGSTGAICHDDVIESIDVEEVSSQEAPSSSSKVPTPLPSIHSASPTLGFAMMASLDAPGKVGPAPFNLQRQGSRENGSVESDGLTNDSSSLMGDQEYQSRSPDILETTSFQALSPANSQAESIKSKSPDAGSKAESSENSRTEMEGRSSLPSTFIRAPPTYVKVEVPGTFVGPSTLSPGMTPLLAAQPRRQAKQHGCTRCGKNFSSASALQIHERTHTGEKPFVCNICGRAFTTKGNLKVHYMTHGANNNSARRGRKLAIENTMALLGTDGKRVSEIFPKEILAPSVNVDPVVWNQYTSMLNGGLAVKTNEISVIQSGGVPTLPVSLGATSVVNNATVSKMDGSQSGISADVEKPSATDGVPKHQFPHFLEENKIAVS
Technique: universal PBM
Molecule type: double-stranded DNA, one strand shown
Matrix: in vitro
Concentration: 600 nM
Notes: 8-mer, flanks averaged, mean of replicates
Direction: higher = stronger binding
The E-score of `CTCTGTCC` is reported as -0.177.
For `TACCCAGA`, the E-score was 0.105.
The E-score of `ACGTGCGC` is reported as -0.118.
For `CCCGGCGG`, the E-score was -0.45.
`GATTGACA` has an E-score of 0.147.
`AATAGTGT` has an E-score of 0.315.
For `ACCGAGAA`, the E-score was 0.0809.
`GCATGACA` gave an E-score of 0.0383.
`CAAGTCGG` has an E-score of -0.19.
`TGTATTAA` gave an E-score of 0.378.
`CGTCAAAG` has an E-score of 0.0403.
For `GTGCCTTA`, the E-score was -0.0142.
`AGGTCGTG` has an E-score of -0.162.
With `ACTCGCGG` the E-score was -0.252.
With `ATGTGTGA` the E-score was 0.0924.
With `TAAACGGA` the E-score was 0.115.
`ATTGACGA` gave an E-score of 0.196.
For `GTCTTTTA`, the E-score was 0.0366.
With `GAACCGAA` the E-score was 0.0316.
`ATTGATCG` gave an E-score of 0.179.
For `AATGTTGT`, the E-score was 0.235.
The E-score of `TAGAAGCA` is reported as 0.103.
With `CCTTCATA` the E-score was 0.212.
With `CATAACAA` the E-score was 0.35.
`CGATAGCC` gave an E-score of -0.105.

Block 4
Target: Histone acetyltransferase KAT6A, both winged helices, GST fusion (KAT6A, Homo sapiens, UniProt Q92794, residues 1-181)
Technique: protein binding microarray
Molecule type: double-stranded DNA, one strand shown
Matrix: in vitro
Concentration: not given
Notes: 8-mer, flanks averaged, mean of 2 arrays, mostly near background
Baseline: not given
Direction: higher = stronger binding
Residues (chain): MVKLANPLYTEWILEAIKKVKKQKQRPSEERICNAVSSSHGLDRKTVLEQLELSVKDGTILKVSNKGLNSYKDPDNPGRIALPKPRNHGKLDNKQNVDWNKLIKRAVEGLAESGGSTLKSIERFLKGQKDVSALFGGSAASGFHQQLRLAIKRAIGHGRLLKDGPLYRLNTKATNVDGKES
The E-score of `GCTTGGCA` is reported as -0.143.
The E-score of `AGGATGTG` is reported as -0.147.
With `GCTCCAAA` the E-score was -0.108.
For `CAGTTTTC`, the E-score was -0.105.
`CCCATTTA` has an E-score of -0.131.
With `GTCATGGA` the E-score was -0.101.
`ACTTACCA` gave an E-score of -0.141.
With `AAGCCTAG` the E-score was 0.0101.
For `CCTCTCAG`, the E-score was -0.318.
For `AGTGAGTG`, the E-score was -0.183.
For `CATAACCA`, the E-score was -0.17.
The E-score of `AGTGTGAT` is reported as -0.12.
`CTGGGCTA` gave an E-score of -0.167.
`GGCAGTTA` gave an E-score of -0.0631.
With `CGATAAGC` the E-score was 0.119.
For `GGTCCAAA`, the E-score was -0.0846.
`GAAGGGGC` has an E-score of -0.148.
With `CCTCCTCG` the E-score was -0.186.
`CTAAGTGC` has an E-score of -0.144.
With `TTCCCAAA` the E-score was -0.287.
The E-score of `GTCCTAAA` is reported as 0.0824.
`GCGTAAAC` gave an E-score of 0.267.
For `ACACAATC`, the E-score was -0.0117.
`GTAAGCTA` gave an E-score of -0.078.
For `TAGTCTCA`, the E-score was -0.12.
